# Experimental data of several laboratories.
# A part holds a random share of what one study measured. Substitutions count along the parent as printed.

# Study 1
# Target: Histone acetyltransferase KAT6A, both winged helices, GST fusion (KAT6A, Homo sapiens, UniProt Q92794, residues 1-181)
# Method: protein binding microarray
# Form: double-stranded DNA, one strand shown
# Medium: in vitro
# Tested at: not given
# Notes: 8-mer, flanks averaged, mean of 2 arrays, mostly near background
# Reference: not given
# Reading: higher = stronger binding
# Target sequence (chain): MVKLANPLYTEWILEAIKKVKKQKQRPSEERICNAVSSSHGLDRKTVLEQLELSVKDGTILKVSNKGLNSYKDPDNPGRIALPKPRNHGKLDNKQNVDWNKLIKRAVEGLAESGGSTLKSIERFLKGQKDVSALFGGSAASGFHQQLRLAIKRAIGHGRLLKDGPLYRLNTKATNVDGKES
Sequence,E-score
ACGAAGTG,-0.0288
TGGACTAA,-0.114
CATGTATA,-0.141
GCGGGTAC,0.187
ACCCACGC,0.0828
CGGCAAAC,0.273
CGAGCCGA,0.00898
TAGATTCA,-0.14
CGAGTCAG,0.0347
ACACTCTC,-0.0474
AGACGGCA,0.257
CAACTTTA,-0.116
TAGAACTA,-0.17
GAATTTTA,-0.0379
CACAGTCA,-0.177
CTCTTTTC,-0.0711
GGTACACC,0.139
GTCAATAA,-0.05
CAACCGAC,0.0705
ATGACTGA,-0.103
GTGTCGTA,-0.064
ACTCCAAA,-0.161

# Study 2
# Target: RNA binding protein fox-1 homolog 2, RRM domain, GST-SBP tag (RBFOX2, Homo sapiens, UniProt O43251-10, residues 100-194)
# Method: RNA Bind-n-Seq
# Form: RNA
# Medium: in vitro
# Tested at: 365 nM
# Notes: natural RNA segment, single round, ends assumed
# Reference: no-protein control
# Reading: higher = stronger binding
# Residues (chain): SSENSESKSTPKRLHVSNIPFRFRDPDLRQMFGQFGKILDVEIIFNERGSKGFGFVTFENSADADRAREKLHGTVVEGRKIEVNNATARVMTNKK
Sequence,RBNS enrichment (R)
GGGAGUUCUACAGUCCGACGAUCCAAAGCGGAAAAUGUUUUAUUUUGUAAUUAUUGUGAUCUCCUGUGGCCCCAGCCUGGCCCAGCCCCCAGGGAGGGGCCCGCUUGCCUCAGCUCCUGCUGCCACCAACCCAUGGAAUUCUCGGGUGCCAA,0.394
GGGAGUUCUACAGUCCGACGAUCAAAUGUACUAGCUAAAAAUGGAUACACAAUGAAGAAUUCUAUUUGGCUAAUUAAGAAUGAUAUACUAUGUACACCCAAUAAGCUGUACUAGAAUGAAUAAAUUACUGAUAUGGAAUUCUCGGGUGCCAA,0.648
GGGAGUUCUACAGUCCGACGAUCUUUCUUGGCUGCAUGAAGGUUUUCUUUAGAAUCAGAAUUGUAGCCAGUUUCUUUGGCCAGAAGGAUGAAUACUUGGAUAUUACUGAAAGGGAGGGGUGGAGAUGGGUGUGUGGAAUUCUCGGGUGCCAA,0.904
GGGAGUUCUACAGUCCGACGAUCUGUAGAAGAUGGACUCUGAAAAACAUUCCAGGAAACCAUGGCAGCAUGGAGAGCCUCUUAGUGAUUGUGUCUGCAUUGUUAUUGUGGAAGAUUUACCUUUUCUGUUGUACUGGAAUUCUCGGGUGCCAA,0.389
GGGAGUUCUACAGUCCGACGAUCAGUGUUUUUAUGAAACAGAGAGCCACGGAAAAUCAUAUAUGAUUCAAUCCAGAUAUGGGUUAAAUUCCUCAUUUUACUUUUAAACUGGUGGUAAAGUGGAAAUUGCAAAAUGGAAUUCUCGGGUGCCAA,0.5
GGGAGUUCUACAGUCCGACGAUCGUGGGGGGAAUGGUCCCAGACUCCUCUCGGGGCCCCUAUCCACACAGGGCCUGGUGUUCUACCCCAUCUGGCCCCUGGCCCAUCUCUUCUGUGCCUUAGUCACAUAUGAAUGGAAUUCUCGGGUGCCAA,0.196
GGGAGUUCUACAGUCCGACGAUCCAAAGAUUUCACCAUGUGUGUUGUUUUUGUUACUGUCUUAAAGGGUGCACAUUUGUGAUCAGCAUUGUGACUUGGAGAUAAUAAAAUUUAGACUGUAGACUUGACUCUGUUGGAAUUCUCGGGUGCCAA,0.29
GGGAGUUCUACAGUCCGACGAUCGAUUAGAAGCUAGUAUCACCCAUUGGGAUUGGCAAUGCCUUCAAAGGCUCCUAGUCAAAUGAUCCAAACCUUUAACAUCGUUUCUGAUGGUACCCAAGUUCACAUUUUAUUGGAAUUCUCGGGUGCCAA,0.295

# Study 3
# Target: Sal-like protein 4, full length isoform B (SALL4, Homo sapiens, UniProt Q9UJQ4-2, residues 1-616)
# Method: universal PBM
# Form: double-stranded DNA, one strand shown
# Medium: in vitro
# Tested at: not given
# Notes: 8-mer, flanks averaged, mean of replicates
# Reading: higher = stronger binding
# Target sequence (chain): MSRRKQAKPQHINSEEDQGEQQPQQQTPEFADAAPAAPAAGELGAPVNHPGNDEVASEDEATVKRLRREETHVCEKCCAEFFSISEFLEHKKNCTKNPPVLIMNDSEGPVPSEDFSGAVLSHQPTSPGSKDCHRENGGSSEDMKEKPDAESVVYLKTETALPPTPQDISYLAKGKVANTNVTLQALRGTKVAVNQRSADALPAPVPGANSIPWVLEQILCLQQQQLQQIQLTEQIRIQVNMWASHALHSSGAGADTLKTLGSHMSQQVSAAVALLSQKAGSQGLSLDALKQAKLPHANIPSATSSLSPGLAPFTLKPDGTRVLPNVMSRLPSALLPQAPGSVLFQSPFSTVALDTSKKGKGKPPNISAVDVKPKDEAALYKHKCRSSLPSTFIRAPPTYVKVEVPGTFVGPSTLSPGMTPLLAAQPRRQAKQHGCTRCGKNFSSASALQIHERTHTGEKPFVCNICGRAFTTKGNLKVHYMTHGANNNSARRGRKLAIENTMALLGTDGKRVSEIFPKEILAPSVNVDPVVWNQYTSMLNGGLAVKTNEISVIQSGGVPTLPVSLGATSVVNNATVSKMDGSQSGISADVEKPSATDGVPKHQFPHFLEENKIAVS
Sequence,E-score
GCCGAACA,-0.104
TCCCATCA,0.0777
ACGCCACT,-0.187
CGACTAGA,-0.176
AAAAAGGG,0.0856
GTTTACCA,0.104
CCGGCACA,-0.325
CCGTCGCG,-0.314
GCCAAACC,-0.17
ATCGGAGA,-0.0696
ACAATTCA,0.204
AAATGACC,0.0532
ACTTTGCA,0.0842
CAACACCG,-0.177
CCGAAAGG,0.0311
CGTTGTCC,0.00824
GAAGCGGA,-0.178
AGCGTAAC,0.129
GCTTGGAC,-0.155
AGGTGTCC,-0.242
AAGATCGT,0.039
CGTACTAC,0.0578
AACCCCTT,-0.0738

# Study 4
# Target: CCND3, cyclin fold, Cln2 fusion (human)
# Method: yeast growth competition, sequencing
# Medium: yeast
# Notes: weak parent motif
# Reference: not given
# Reading: higher = stronger binding
# Starting sequence: SCAPER docking peptide (human); SNARRSLNFGGST; partner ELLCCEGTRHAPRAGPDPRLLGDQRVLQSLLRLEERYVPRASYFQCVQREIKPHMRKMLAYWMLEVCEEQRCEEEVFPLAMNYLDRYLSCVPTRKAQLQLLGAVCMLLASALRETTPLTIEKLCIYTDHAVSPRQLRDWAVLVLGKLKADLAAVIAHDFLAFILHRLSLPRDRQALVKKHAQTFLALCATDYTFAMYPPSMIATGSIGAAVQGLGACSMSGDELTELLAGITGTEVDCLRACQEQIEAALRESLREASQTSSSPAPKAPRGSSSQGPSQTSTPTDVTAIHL
Change,normalised enrichment score
G10H,0.133
N2T,0.185
S6P,0.189
A3Q,0.064
T13V,0.14
N8D,0.116
G10S,0.135
G10Y,0.164
S6Q,0.141
N8T,0.164
F9T,0.126
G10R,0.045
S12P,0.222
A3F,0.135
R4M,0.0938
T13R,0.131
G11P,0.0838
A3Y,0.0562
S1D,0.174
S12E,0.226
N8E,0.179
R5T,0.102
R5Q,0.0817
S6C,0.199
S1Y,0.162

# Study 5
# Target: ABI1, truncated, D143A, DHFR fusion (Arabidopsis thaliana)
# Method: DHFR PCA, deep sequencing
# Medium: yeast
# Notes: methotrexate growth selection, single substitutions
# Together with: (+)-ABA 58 µM
# Reference: wild-type fitted maximum
# Reading: higher = stronger binding
# Starting sequence: PYL1, truncated, DHFR fusion (Arabidopsis thaliana); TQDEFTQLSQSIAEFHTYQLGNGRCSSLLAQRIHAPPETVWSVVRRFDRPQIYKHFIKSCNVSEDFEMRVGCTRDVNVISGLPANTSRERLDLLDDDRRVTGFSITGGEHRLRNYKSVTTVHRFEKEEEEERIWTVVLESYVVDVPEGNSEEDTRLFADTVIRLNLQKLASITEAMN; partner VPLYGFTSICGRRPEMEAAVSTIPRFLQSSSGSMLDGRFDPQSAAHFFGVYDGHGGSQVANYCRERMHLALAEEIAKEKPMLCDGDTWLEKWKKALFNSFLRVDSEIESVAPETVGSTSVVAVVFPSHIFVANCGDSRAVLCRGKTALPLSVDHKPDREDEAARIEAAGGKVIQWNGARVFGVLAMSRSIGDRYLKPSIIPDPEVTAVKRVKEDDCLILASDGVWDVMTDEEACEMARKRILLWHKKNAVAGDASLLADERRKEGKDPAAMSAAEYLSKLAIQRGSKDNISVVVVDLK
Change,relative binding score
V161L,75.4%
H16M,0.337%
Q10P,88%
N165Q,2.61%
G23V,44%
T154M,64.3%
G148E,67.9%
G21C,88.4%
K116R,95.1%
P37E,62.1%
F157C,5.87%
V100F,27.2%
P36A,84.9%
G107N,48.4%
K168R,82%
R69K,88.4%

# Repeated from above (study 3):
Sequence,E-score
ACGCCACT,-0.187
CGACTAGA,-0.176
AAAAAGGG,0.0856
GTTTACCA,0.104
CCGGCACA,-0.325
CCGTCGCG,-0.314
GCCAAACC,-0.17
ATCGGAGA,-0.0696
ACAATTCA,0.204
AAATGACC,0.0532
ACTTTGCA,0.0842
CAACACCG,-0.177
CCGAAAGG,0.0311
CGTTGTCC,0.00824
GAAGCGGA,-0.178
AGCGTAAC,0.129
